Experimental data pooled from the literature.
Numbered parts are unrelated; each lists some results of a single study. Changes are numbered by the printed parent chain.

Sample 1 — method: universal PBM; form: double-stranded DNA, one strand shown; matrix: in vitro; concentration: not given; direction: higher = stronger binding
Target: Sal-like protein 4, full length isoform B (SALL4, Homo sapiens, UniProt Q9UJQ4-2, residues 1-616)
Setting: 8-mer, flanks averaged, mean of replicates
Target sequence (chain): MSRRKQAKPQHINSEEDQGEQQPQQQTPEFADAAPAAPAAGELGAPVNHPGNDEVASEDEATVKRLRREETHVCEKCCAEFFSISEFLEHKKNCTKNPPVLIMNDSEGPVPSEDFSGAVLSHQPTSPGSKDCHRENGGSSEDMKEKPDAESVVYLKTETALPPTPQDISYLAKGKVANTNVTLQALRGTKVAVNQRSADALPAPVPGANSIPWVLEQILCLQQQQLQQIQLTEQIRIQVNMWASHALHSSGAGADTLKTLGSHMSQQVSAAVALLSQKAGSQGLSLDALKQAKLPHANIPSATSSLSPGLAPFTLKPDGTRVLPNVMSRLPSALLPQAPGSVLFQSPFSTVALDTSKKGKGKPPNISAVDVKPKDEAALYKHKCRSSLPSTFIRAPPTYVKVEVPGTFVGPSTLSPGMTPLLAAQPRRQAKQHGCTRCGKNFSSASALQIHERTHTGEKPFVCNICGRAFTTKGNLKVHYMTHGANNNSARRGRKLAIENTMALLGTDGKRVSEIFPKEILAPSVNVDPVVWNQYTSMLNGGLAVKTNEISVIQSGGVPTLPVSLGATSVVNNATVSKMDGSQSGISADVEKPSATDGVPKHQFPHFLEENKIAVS
`GCTTCGCC` gave an E-score of -0.196.
The E-score of `ATGGTGAG` is reported as -0.113.
The E-score of `ATTCGTGG` is reported as -0.0599.
The E-score of `GCCCACAA` is reported as -0.167.
For `GAGTCGCC`, the E-score was -0.37.
With `CTGGACAA` the E-score was -0.076.
`CGGCGCCG` has an E-score of -0.299.
`ACTCACCG` gave an E-score of -0.172.

Sample 2 — method: RNAcompete; form: RNA; matrix: in vitro; concentration: 20 nM; setting: 7-mer, probes averaged, single round; reference: mean of 7-mers; direction: higher = stronger binding
Target: PABPC1L2, full length, GST fusion (mouse, UniProt A0ABA7IW68)
Residues (chain): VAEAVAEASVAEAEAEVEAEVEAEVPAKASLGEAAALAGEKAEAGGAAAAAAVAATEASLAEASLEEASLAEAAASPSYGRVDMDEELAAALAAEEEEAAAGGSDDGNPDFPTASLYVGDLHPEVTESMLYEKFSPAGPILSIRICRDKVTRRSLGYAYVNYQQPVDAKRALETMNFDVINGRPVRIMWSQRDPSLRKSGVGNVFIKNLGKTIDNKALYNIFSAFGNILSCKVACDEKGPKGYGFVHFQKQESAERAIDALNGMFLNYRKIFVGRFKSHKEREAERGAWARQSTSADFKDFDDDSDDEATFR
`UCGCAAU` gave a 7-mer Z-score of -0.188.
For `CCGCGUA`, the 7-mer Z-score was -0.209.
For `GUCGGCG`, the 7-mer Z-score was -0.179.
With `CGGCCAU` the 7-mer Z-score was -0.257.
For `GUUACAU`, the 7-mer Z-score was -0.128.
`UCGGCCU` has a 7-mer Z-score of -0.429.
With `CCCGGGC` the 7-mer Z-score was -0.344.
With `ACCCGUU` the 7-mer Z-score was -0.315.

Sample 3 — partner: H2BC18 (Homo sapiens, UniProt Q5QNW6); method: cross-linking MS; setting: hits only
For `H2AX (Homo sapiens, UniProt P16104)`, interaction screen read “cross-linked”.
Under interaction screen, `Histone H2B type 1-C/E/F/G/I (Homo sapiens, UniProt P62807)` is recorded as “cross-linked”.
For `H3-4 (Homo sapiens, UniProt Q16695)`, interaction screen read “cross-linked”.
`H2AZ1 (Homo sapiens, UniProt P0C0S5)`: interaction screen “cross-linked”.

Single results of other studies
Parent: PafA, mature enzyme, eGFP fusion (Elizabethkingia meningoseptica, UniProt Q9KJX5); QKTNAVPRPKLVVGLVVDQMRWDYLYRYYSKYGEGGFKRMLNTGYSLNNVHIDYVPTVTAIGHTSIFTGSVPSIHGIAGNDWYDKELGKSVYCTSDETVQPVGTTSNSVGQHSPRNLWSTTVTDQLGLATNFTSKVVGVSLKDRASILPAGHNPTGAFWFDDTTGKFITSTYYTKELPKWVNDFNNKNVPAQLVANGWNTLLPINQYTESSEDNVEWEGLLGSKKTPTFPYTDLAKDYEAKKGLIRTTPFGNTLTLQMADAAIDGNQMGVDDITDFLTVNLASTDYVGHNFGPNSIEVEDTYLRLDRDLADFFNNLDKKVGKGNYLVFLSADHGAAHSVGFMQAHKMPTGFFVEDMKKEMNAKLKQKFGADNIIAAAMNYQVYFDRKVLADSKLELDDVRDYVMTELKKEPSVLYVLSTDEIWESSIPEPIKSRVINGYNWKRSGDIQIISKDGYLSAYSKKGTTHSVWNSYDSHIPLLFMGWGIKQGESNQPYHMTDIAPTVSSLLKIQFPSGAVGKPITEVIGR
Under “oxyanion analog dissociation constant”, `N107V` is recorded as 755 nM (vanadate, free oxyanion; microfluidic competitive inhibition; in vitro, cell-free expressed; not given, derived from inhibition constants, unchanged parent 676 nM; lower = stronger binding).

For quick reference, copied from above (sample 2):
For `GUCGGCG`, the 7-mer Z-score was -0.179.
With `CCCGGGC` the 7-mer Z-score was -0.344.
